Measurements from different studies.
± marks the error that the study gave.

COc1ccc([C@@H](O)c2cc(-c3ncnc4cc(N5CCOCC5)ccc34)c(F)cc2Cl)nn1
radiation skin injury TEAE (locally advanced rectal cancer; oral, 250 mg, with: capecitabine and radiotherapy): 0%

COc1ccc2nc([S+]([O-])Cc3ncc(CO)c(OC)c3C)[nH]c2c1 (stereo not drawn)
R/S enantiomer ratio (human, dried plasma spots; 2 h; baseline: baseline): 9.89

CC[C@H]1OC(=O)[C@H](C)[C@@H](O[C@H]2C[C@@](C)(OC)[C@@H](O)[C@H](C)O2)[C@H](C)[C@@H](O[C@@H]2O[C@H](C)C[C@H](N(C)C)[C@H]2O)[C@](C)(O)C[C@@H](C)C(=O)[C@H](C)[C@@H](O)[C@]1(C)O
amount permeated (starch gel membrane permeability; Gram-negative envelope surrogate; 200 µM, 45 min, pH 7.4): 0.56 nmol

CC(C)c1nc(N(C)S(C)(=O)=O)nc(-c2ccc(F)cc2)c1/C=C/[C@@H](O)C[C@@H](O)CC(=O)O
peripheral volume of distribution (population pharmacokinetic model; people living with HIV; oral, dose not given, bootstrap median): 1600 L

CC(C)(C(=O)N1CCOc2c(C#N)cncc2C1)C(F)F
subjects with adverse event (item: Investigations; human; oral, 10 mg once daily, 14 days, multiple ascending dose): 0%

COc1c(O)cccc1OS(=O)(=O)O
plasma concentration (human plasma; median): 1690 nM

NC(=O)C1CCCc2c1[nH]c1ccc(Cl)cc21 (racemic)
viability (OCI-Ly1; 0.1 µM, 120 h): 192%

O=S(=O)(O)Oc1cc([C@H]2Oc3cc(O)cc(O)c3C[C@H]2O)ccc1O
plasma concentration (human plasma; median): 629 nM

[H]/N=C(/N)N[C@H]1[C@H](O)[C@@H](O)[C@H](O[C@@H]2O[C@@H](C)[C@](O)(C=O)[C@H]2O[C@@H]2O[C@@H](CO)[C@H](O)[C@@H](O)[C@@H]2NC)[C@@H](N/C(N)=N\[H])[C@@H]1O
amount permeated (starch gel membrane permeability; Gram-negative envelope surrogate; 200 µM, 60 min, pH 7.4): 1.72 nmol

COc1c(O[C@@H]2O[C@H](CO)[C@@H](O)[C@H](O)[C@H]2O)c(C)cc2c1C(=O)c1c(O)cccc1C2=O
cell viability (HepaRG co-cultured with HK-2; MTT; 16.67 µM, 24 h; baseline: untreated control): 74.7 ± 6.24%

NC1(C(=O)N[C@@H](CCO)c2ccc(Cl)cc2)CCN(c2nc[nH]c3nccc2-3)CC1
incidence of white blood cell decreased (metastatic CRPC patients; 320 mg b.i.d., grade 3 to 4, treatment-related, with: enzalutamide 160 mg daily): 0%

Cc1cc(O)c2c(c1)C(=O)c1cccc(O)c1C2=O
cell viability (HepaRG co-cultured with HK-2; MTT; 16.67 µM, 24 h; baseline: untreated control): 90.8 ± 9.79%

O=C(O)c1ccccc1O
plasma concentration (human plasma; mean, both sexes): 5900 nM

COc1ccc2c(=O)n(C)c(-c3ccccc3)nc2c1
tissue/plasma ratio (Sprague-Dawley rat, male, bladder; oral, 30 mg/kg, 2 h; baseline: bladder over plasma): 8.65

Cc1cc(Nc2cc3ncccc3c(N[C@@H]3C[C@H]4CC[C@@H](C3)N4CCC#N)n2)n[nH]1
AUC(0-24) (human, plasma; 100 mg single dose, mean): 13.5 ng·h/mL

Cc1nc2cccc(OCC(C)(C)C(=O)NC(C)C)c2c(N)c1C(=O)O
AUC(0-last) ratio (Sprague-Dawley rat, plasma; oral, 30 mg/kg, day 7; baseline: female over male): 1.24 ± 0.16

CC[C@@](N)(c1cnc(C(F)(F)F)c(Cl)c1)c1c2ncn(C3CC3)c(=O)c2nn1C
CL (rat Sprague-Dawley male, plasma; intravenous, 1 mg/kg): 0.466 ± 0.059 mL/min/kg

CCN1/C(=C/C(C)=O)Sc2ccc(F)cc21
QT interval (cynomolgus monkey; oral, 100 mg/kg, 0.5 h post-dose): 226 ± 8 ms

Cc1ncsc1-c1ccc(CNC(=O)[C@@H]2C[C@@H](O)CN2C(=O)[C@@H](NC(=O)CCCCCCCCCCCC(=O)NCCCCC#Cc2cccc(-c3nn(-c4nc(C(=O)O)cs4)c(CC4CC4)c3Cc3ccc(S(N)(=O)=O)cc3)c2)C(C)(C)C)cc1
tolerability (Swiss albino mice; intraperitoneal, 5 mg/kg): not toxic

FC(F)(F)c1ccc(CNc2ccc(Cc3c[nH]c4ncc(Cl)cc34)cn2)cn1
adverse event incidence (item: blood alkaline phosphatase increased; patients with advanced solid tumours; oral, dose not given, grade 1 and 2, possibly related to drug): 15%

CCN(CC)CCCC(C)Nc1ccnc2cc(Cl)ccc12 (stereo not drawn)
apoptosis (COS-7; 100 µM, 24 h, 0.1% DMSO, unit not given; baseline: control): 2.32 ± 0.33

Cc1ccc([C@@H]2O[C@H](CO)[C@@H](O)[C@H](O)[C@H]2O)cc1Cc1ccc(-c2ccc(F)cc2)s1
urinary sodium excretion change (Japanese type 2 diabetes patients; 100 mg, day 16, 24 h urine collection; baseline: baseline): -24.7 mEq

O=C(Nc1cnc2ccccc2c1)c1cc2[nH]ccc2cc1Cl
apoptotic cells (COS-7; 1 µM, 24 h, 0.1% DMSO, unit not given; baseline: vehicle control): 1.28 ± 0.89

CCO[C@H]1CCN(Cc2c(OC)cc(C)c3[nH]ccc23)[C@H](c2ccc(C(=O)O)cc2)C1
incidence of GGT increase (PNH patients, active haemolysis; oral, 100 mg, 8 weeks, treatment): 0%

Excerpt of the above:
COc1ccc2nc([S+]([O-])Cc3ncc(CO)c(OC)c3C)[nH]c2c1 (stereo not drawn)
R/S enantiomer ratio (human, dried plasma spots; 2 h; baseline: baseline): 9.89

CC[C@H]1OC(=O)[C@H](C)[C@@H](O[C@H]2C[C@@](C)(OC)[C@@H](O)[C@H](C)O2)[C@H](C)[C@@H](O[C@@H]2O[C@H](C)C[C@H](N(C)C)[C@H]2O)[C@](C)(O)C[C@@H](C)C(=O)[C@H](C)[C@@H](O)[C@]1(C)O
amount permeated (starch gel membrane permeability; Gram-negative envelope surrogate; 200 µM, 45 min, pH 7.4): 0.56 nmol

CC(C)c1nc(N(C)S(C)(=O)=O)nc(-c2ccc(F)cc2)c1/C=C/[C@@H](O)C[C@@H](O)CC(=O)O
peripheral volume of distribution (population pharmacokinetic model; people living with HIV; oral, dose not given, bootstrap median): 1600 L
